# Assay results gathered from unrelated publications.
# “And” joins repeats or separate records; there may be more than shown. ± gives the spread as reported.
SMILES,cell line,test,system,conditions,how to read,endpoint,result
C#CCOC(=O)[C@@]1(C)C=C(C(=O)Nc2cccc(C(=O)Nc3ccc(C)c(Nc4nccc(-c5cccnc5)n4)c3)c2)C(=O)CC1,SH-SY5Y MKK7 active,"western blot, item: phospho-c-Jun Ser73",,"0.1 µM, unit not given",reference: doxycycline without inhibitor,phospho-c-Jun level,0.981
CNc1ncnc2c1ncn2C1OC(CO)C(O)C1O (stereo not shown),mock-transfected cells,"TGFα shedding, agonist",,100 nM,reference: unstimulated vehicle control,AP-TGFα release,0.06% and 0.22% and 0.5%
C=CC(=O)N1[C@H](c2ccc3c(c2)OCO3)c2[nH]c3ccccc3c2C[C@@H]1C(=O)NC,rat DRG neurons,,,"0.1235 µM, 48 h, together with: vincristine 40 nM",,neuron degeneration,61.4% and 58.1%
COc1ccc(CNc2ccc3c(c2)S(=O)(=O)C=C3)cc1,T98G,resazurin,,"5 µM, 24 h",,viability,55%
Cc1c(Cl)cccc1Nc1ccccc1C(=O)[Se]CC(=O)Nc1cccc(C(F)(F)F)c1,NCI60 breast subpanel mean,cell growth,,,,TGI,4180 nM
COc1ccccc1-c1ccncc1C(=O)Nc1nnc(OCc2ccc(Cl)cc2)s1,DLD-1 parental,,,"1 µM, mean of replicates",,colony count,78.5 and 68.5 and 79.5
COC(=O)c1cc(NC2=NC(=O)C(=Cc3ccc(N(C)C)cc3)S2)ccc1OC(C)=O,MCF7,item: POLA1 mRNA,,"0.81 µM (IC50), 24 h",reference: DMSO,fold change,0.196
Cc1cccc(-c2cccc(C)n2)n1.Cc1cccc(-c2cccc(C)n2)n1.F[P-](F)(F)(F)(F)F.F[P-](F)(F)(F)(F)F.[Ru+2].c1ccc2c(c1)Cc1cc(-c3nc4c5cccnc5c5ncccc5c4[nH]3)ccc1-2,SK-MEL-28,,,"normoxia, together with: green light 523 nm, 100 J/cm2",reference: dark over light EC50,phototoxicity index,1
CCOc1cncc(-c2ccc(NC(=O)C3(c4ccnc(NS(=O)(=O)C5CC5)n4)CCOCC3)nc2)n1,OCI-AML-3,"cell proliferation, CellTiter-Glo",,72 h,,IC50,27 nM
O=C(Nc1nnc2c1c(-c1ccc(Cl)cc1)nc1sc(=Cc3ccco3)c(=O)n12)c1ccccc1 (mixture of isomers),A498,SRB,,"10 µM, NCI60 single-dose screen",reference: untreated,cell growth,78.8%
CN1CCN(C(=O)c2ccc(-c3cc4c(N5CCC[C@H](C(=O)NCc6ccc(OC(F)(F)F)cc6)C5)ncnc4[nH]3)cc2)CC1,NCI-H3122,"cell growth or viability, MTT",,"5 µg/mL, 72 h",,inhibition,82.1%
CCN(C(=O)c1cc(F)ccc1Oc1nncnc1N1CCC2(C1)CN([C@H](CCCN(C)CCOC)C(C)C)C2)C(C)C,A-431,cell growth or viability,,72 h,,GI50,> 10000 nM
CC(C)c1ccc(N(C)c2ccc3c(c2)OCC[C@H]3CNc2cnccc2C(=O)O)cc1,SNB-19,"cell growth or viability, ATP luminescence",,7 days,,IC50,11.6 nM
COc1cc(N2CCN(C(=O)C3CCCN3)CC2)ccc1Nc1ncc(Cl)c(Nc2ccccc2P(C)(C)=O)n1 (stereo not shown),Ba/F3 EML4-ALK,annexin V flow cytometry,,"concentration not given, 24 h",,late apoptotic cells,17%
CC1(C)CC[C@@]2(CO)C(=C3C=C[C@@H]4[C@@]5(C)CC[C@H](O)[C@@](C)(CO)[C@@H]5CC[C@@]4(C)[C@]3(C)C[C@@H]2O)C1,"HepG2, negative control siRNA","Western blot, item: PPAR-α",,"concentration not given, high dose, unit not given, together with: ethanol",reference: β-actin,protein level,0.704 and 0.628 and 1.15
Cn1ncc2cc(-c3cncc(Cl)c3N3CCC4(CCNC4=O)CC3)ccc21,LS174T,"gene expression, microarray, item: TNFAIP2 mRNA",,"concentration not given, 4 h",reference: untreated cells,log2 fold change,1.6
CNS(=O)(=O)Nc1nccc(Cc2c(C)c3ccc(Oc4ncccc4F)cc3oc2=O)c1F,A498,cell viability,,7 days,,IC50,> 1000 nM
O=C(C[Se]C(=O)c1cc2ccccc2o1)Nc1cccc(C(F)(F)F)c1,"NCI60 prostate subpanel (PC-3, DU-145)","cell growth, inhibitor",,five-dose,,GI50,1580 nM
Cc1ncsc1-c1ccc(C(C)NC(=O)C2CC(O)CN2C(=O)C(NC(=O)CCCCCCCCCCN2CCCC(Nc3ncc(Cl)c(Nc4ccccc4S(=O)(=O)C(C)C)n3)C2)C(C)(C)C)cc1 (stereo not shown),22Rv1,"RNA-seq, item: ZSCAN16 mRNA",,concentration not given,reference: DMSO,log2 fold change,-2.16
O=C(N[C@@H](Cc1ccc(OCCCCC2CCNCC2)cc1)C(=O)O)c1nc2ccccc2o1.O=C(O)C(F)(F)F,platelets,impedance aggregometry,"human, diluted whole blood","50 nM, together with: ADP",reference: untreated,ADP-induced aggregation,0.802 and 0.774 and 0.784 and 0.994 and 0.485
CC[C@@H](C)[C@@H](NC(=O)[C@@H](Cc1ccc(O)cc1)NC(=O)[C@H]1CCCN1C(=O)[C@@H](CCCNC(=N)N)NC(=O)[C@H](N)Cc1c[nH]cn1)C(=O)N[C@H](C)C(=O)N[C@H](Cc1c[nH]cn1)C(=O)NCC(=O)NCC(=O)NCC(=O)N[C@@H](CCCCNC(=O)CCCC[C@@H]1SC[C@@H]2NC(=O)N[C@@H]21)C(N)=O,HEK293T-OFP cells,flow cytometry,,"concentration not given, together with: biotin-labelled peptide",,binding rate,0.25% and 0.39% and 0.4%
NCCCC[C@H](NC(=O)[C@H](Cc1ccc(O)cc1)NC(=O)[C@H](CCCCN)NC(=O)[C@H](Cc1c[nH]c2ccccc12)NC(=O)[C@H](Cc1ccccc1)NC(=O)[C@H](Cc1ccccc1)NC(=O)Cc1ccc(-c2ccccc2)cc1)C(=O)NCC(=O)N[C@@H](Cc1c[nH]cn1)C(=O)N1CCC[C@H]1C(=O)NCC(=O)NCC(=O)N1CCC[C@H]1C(=O)N[C@@H](CCC(N)=O)C(=O)N[C@@H](CC(=O)O)C(=O)N[C@@H](CC(=O)O)C(=O)N[C@@H](CC(=O)O)C(=O)N[C@@H](CC(=O)O)C(=O)N[C@@H](CC(=O)O)C(=O)N[C@@H](CC(=O)O)C(=O)O,RAW264.7-derived osteoclasts,,,"concentration not given, 6 days, together with: RANKL",reference: RANKL alone,TRAP-positive osteoclast number,decreased
O=C(C[Se]C(=O)c1ccc2ccccc2c1)Nc1cccc(C(F)(F)F)c1,"NCI60 prostate subpanel (PC-3, DU-145)",cell growth,,"10 µM, 48 h, one-dose",,mean growth percent,-81.8%
CN1CCCNC(=O)c2cccc(c2)C(=O)NCCCN(C)CCCNc2cccc3c2C(=O)c2cccc(c2C3=O)NCCC1,SAS,"RNA-Seq, item: GADD45B mRNA",,"1 µM, 24 h",reference: untreated cells,log2 fold change,0.302
[Cl-].[Cl-].[Ru+2].c1ccc(-c2ccccn2)nc1.c1ccc(-c2ccccn2)nc1.c1ccc2cc3nc4c5cccnc5c5ncccc5c4nc3cc2c1,SK-MEL-28,,,"light 633 nm, oxygen 1%",reference: dark EC50 over light EC50,phototherapeutic index,1
O=C(C[Se]C(=O)c1cc2ccccc2[nH]1)Nc1cccc(C(F)(F)F)c1,"NCI60 prostate subpanel (PC-3, DU-145)","cell growth, inhibitor",,five-dose,,GI50,1510 nM
CSCC[C@H](NC(=O)[C@H](CCC(N)=O)NC(=O)[C@H](CCCCN)NC(=O)[C@H](CCCNC(=N)N)NC(=O)[C@H](Cc1ccc(O)cc1)NC(=O)[C@H](CCCNC(=N)N)NC(=O)[C@H](CO)NC(=O)[C@H](Cc1ccc(O)cc1)NC(=O)[C@H](CO)NC(=O)[C@H](CC(=O)O)NC(=O)[C@@H](NC(=O)[C@@H](N)Cc1ccccc1)[C@@H](C)O)C(=O)N[C@@H](C)C(=O)N[C@H](C(=O)N[C@@H](CCCCN)C(=O)N[C@@H](CCCCn1cc(C[C@H](NC(=O)CNC(=O)[C@H](CO)NC(=O)[C@H](CCCNC(=N)N)NC(=O)[C@H](CO)NC(=O)[C@H](CC(C)C)NC(=O)[C@H](CC(C)C)NC(=O)CNC(=O)[C@H](C)NC(=O)[C@H](CC(C)C)NC(=O)[C@H](CCCNC(=N)N)NC(=O)[C@H](Cc2c[nH]cn2)NC(=O)[C@@H](NC(=O)[C@@H](N)C(C)C)[C@@H](C)O)C(=O)N[C@H](C(=O)N[C@H](C(=O)N[C@@H](CCCCN)C(=O)N[C@@H](CC(N)=O)C(=O)N[C@@H](CC(N)=O)C(=O)N[C@@H](Cc2ccccc2)C(=O)N[C@H](C(=O)N2CCC[C@H]2C(=O)N[C@H](C(=O)N[C@@H](CC(N)=O)C(=O)N[C@H](C(=O)NCC(=O)N[C@@H](CO)C(=O)N[C@@H](CCCCN)C(=O)N[C@@H](C)C(=O)N[C@@H](Cc2ccccc2)C(N)=O)C(C)C)[C@@H](C)O)C(C)C)C(C)C)C(C)C)nn1)C(=O)N[C@@H](Cc1ccc(O)cc1)C(=O)N[C@@H](CC(C)C)C(=O)N[C@@H](C)C(=O)N[C@@H](C)C(=O)N[C@H](C(=O)N[C@@H](CC(C)C)C(=O)NCC(=O)N[C@@H](CCCCN)C(=O)N[C@@H](CCCNC(=N)N)C(=O)N[C@@H](Cc1ccc(O)cc1)C(=O)N[C@@H](CCCCN)C(=O)N[C@@H](CCC(N)=O)C(=O)N[C@@H](CCCNC(=N)N)C(=O)N[C@H](C(=O)N[C@@H](CCCCN)C(=O)N[C@@H](CC(N)=O)C(=O)N[C@@H](CCCCN)C(N)=O)C(C)C)C(C)C)C(C)C,transfected COS-7 cells,"cAMP accumulation, antagonist",,together with: PACAP-27,,A2,4.9 µM
CO[C@@H]1[C@@H](OC(N)=O)[C@@H](O)[C@H](Oc2ccc3c(O)c(NC(=O)c4ccc(O)c(CC=C(C)C)c4)c(=O)oc3c2C)OC1(C)C,HCT-116 BRCA2 wild-type,,,"100 µM, replicate A",reference: untreated,colony survival,91.9%
C[C@H](c1ccccc1)N1C(=O)C2=Nc3cc(Cl)ccc3CN2C1=S,"CEM/ADR5000 (P-gp overexpressing, multidrug resistant)","cell viability, resazurin",,72 h,,IC50,156 ± 13 nM
Cc1cccc(-c2cccc(C)n2)n1.Cc1cccc(-c2cccc(C)n2)n1.F[P-](F)(F)(F)(F)F.F[P-](F)(F)(F)(F)F.[Ru+2].c1ccc(-c2nc3c4cccnc4c4ncccc4c3[nH]2)cc1,SK-MEL-28,cell viability,,"dark, 1% O2",,EC50,281000 ± 15000 nM
CCN(CC)CC(=O)Nc1cccc(-n2cc(-c3ccc4ccc(-c5cn(-c6cccc(NC(=O)CN(CC)CC)c6)nn5)cc4c3)nn2)c1,RCC4,"PCR angiogenesis array, item: VEGFA",,"5 x IC50, 4 h, normoxia",reference: untreated,fold regulation,-1.17 fold

# Excerpt of the above:
SMILES,cell line,test,system,conditions,how to read,endpoint,result
COc1ccc(CNc2ccc3c(c2)S(=O)(=O)C=C3)cc1,T98G,resazurin,,"5 µM, 24 h",,viability,55%
CC[C@@H](C)[C@@H](NC(=O)[C@@H](Cc1ccc(O)cc1)NC(=O)[C@H]1CCCN1C(=O)[C@@H](CCCNC(=N)N)NC(=O)[C@H](N)Cc1c[nH]cn1)C(=O)N[C@H](C)C(=O)N[C@H](Cc1c[nH]cn1)C(=O)NCC(=O)NCC(=O)NCC(=O)N[C@@H](CCCCNC(=O)CCCC[C@@H]1SC[C@@H]2NC(=O)N[C@@H]21)C(N)=O,HEK293T-OFP cells,flow cytometry,,"concentration not given, together with: biotin-labelled peptide",,binding rate,0.25% and 0.39% and 0.4%
CSCC[C@H](NC(=O)[C@H](CCC(N)=O)NC(=O)[C@H](CCCCN)NC(=O)[C@H](CCCNC(=N)N)NC(=O)[C@H](Cc1ccc(O)cc1)NC(=O)[C@H](CCCNC(=N)N)NC(=O)[C@H](CO)NC(=O)[C@H](Cc1ccc(O)cc1)NC(=O)[C@H](CO)NC(=O)[C@H](CC(=O)O)NC(=O)[C@@H](NC(=O)[C@@H](N)Cc1ccccc1)[C@@H](C)O)C(=O)N[C@@H](C)C(=O)N[C@H](C(=O)N[C@@H](CCCCN)C(=O)N[C@@H](CCCCn1cc(C[C@H](NC(=O)CNC(=O)[C@H](CO)NC(=O)[C@H](CCCNC(=N)N)NC(=O)[C@H](CO)NC(=O)[C@H](CC(C)C)NC(=O)[C@H](CC(C)C)NC(=O)CNC(=O)[C@H](C)NC(=O)[C@H](CC(C)C)NC(=O)[C@H](CCCNC(=N)N)NC(=O)[C@H](Cc2c[nH]cn2)NC(=O)[C@@H](NC(=O)[C@@H](N)C(C)C)[C@@H](C)O)C(=O)N[C@H](C(=O)N[C@H](C(=O)N[C@@H](CCCCN)C(=O)N[C@@H](CC(N)=O)C(=O)N[C@@H](CC(N)=O)C(=O)N[C@@H](Cc2ccccc2)C(=O)N[C@H](C(=O)N2CCC[C@H]2C(=O)N[C@H](C(=O)N[C@@H](CC(N)=O)C(=O)N[C@H](C(=O)NCC(=O)N[C@@H](CO)C(=O)N[C@@H](CCCCN)C(=O)N[C@@H](C)C(=O)N[C@@H](Cc2ccccc2)C(N)=O)C(C)C)[C@@H](C)O)C(C)C)C(C)C)C(C)C)nn1)C(=O)N[C@@H](Cc1ccc(O)cc1)C(=O)N[C@@H](CC(C)C)C(=O)N[C@@H](C)C(=O)N[C@@H](C)C(=O)N[C@H](C(=O)N[C@@H](CC(C)C)C(=O)NCC(=O)N[C@@H](CCCCN)C(=O)N[C@@H](CCCNC(=N)N)C(=O)N[C@@H](Cc1ccc(O)cc1)C(=O)N[C@@H](CCCCN)C(=O)N[C@@H](CCC(N)=O)C(=O)N[C@@H](CCCNC(=N)N)C(=O)N[C@H](C(=O)N[C@@H](CCCCN)C(=O)N[C@@H](CC(N)=O)C(=O)N[C@@H](CCCCN)C(N)=O)C(C)C)C(C)C)C(C)C,transfected COS-7 cells,"cAMP accumulation, antagonist",,together with: PACAP-27,,A2,4.9 µM
CCOc1cncc(-c2ccc(NC(=O)C3(c4ccnc(NS(=O)(=O)C5CC5)n4)CCOCC3)nc2)n1,OCI-AML-3,"cell proliferation, CellTiter-Glo",,72 h,,IC50,27 nM
